Assay results gathered from unrelated publications.
Numbered parts are unrelated; each lists some results of a single study. Positions count from the first letter of the parent shown.

Study 1
Target: ABI1, truncated, D143A, DHFR fusion (Arabidopsis thaliana)
Method: DHFR PCA, deep sequencing
Sample: yeast
Setting: methotrexate growth selection, single substitutions
Together with: (+)-ABA 0.39 µM
Relative to: wild-type fitted maximum
Reading: higher = stronger binding
Parent: PYL1, truncated, DHFR fusion (Arabidopsis thaliana); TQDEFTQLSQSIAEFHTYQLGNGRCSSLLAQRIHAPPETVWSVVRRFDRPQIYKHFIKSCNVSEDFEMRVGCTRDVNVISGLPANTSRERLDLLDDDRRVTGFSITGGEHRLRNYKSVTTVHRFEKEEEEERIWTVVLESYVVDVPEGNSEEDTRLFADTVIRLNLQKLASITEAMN
Change | relative binding score [%]
S26Y | 12.4
V145A | -10.9
V100N | -11
R69H | 21
V43S | -0.202
T154V | 51.5
H34E | 48.4
L138H | 11.8
E89S | -5.45
E64Y | 7.56
D97F | 7.17
L94H | 28.5

Study 2
Target: Protein C-ets-1 (ETS1, Homo sapiens, UniProt P14921, residues 1-441, full length assumed)
Method: protein-binding microarray
Molecule type: double-stranded DNA, one strand shown
Sample: in vitro
Concentration: not given
Setting: k-mer, scored over probes, only values ≥0.25
Reading: higher = stronger binding
Construct (chain): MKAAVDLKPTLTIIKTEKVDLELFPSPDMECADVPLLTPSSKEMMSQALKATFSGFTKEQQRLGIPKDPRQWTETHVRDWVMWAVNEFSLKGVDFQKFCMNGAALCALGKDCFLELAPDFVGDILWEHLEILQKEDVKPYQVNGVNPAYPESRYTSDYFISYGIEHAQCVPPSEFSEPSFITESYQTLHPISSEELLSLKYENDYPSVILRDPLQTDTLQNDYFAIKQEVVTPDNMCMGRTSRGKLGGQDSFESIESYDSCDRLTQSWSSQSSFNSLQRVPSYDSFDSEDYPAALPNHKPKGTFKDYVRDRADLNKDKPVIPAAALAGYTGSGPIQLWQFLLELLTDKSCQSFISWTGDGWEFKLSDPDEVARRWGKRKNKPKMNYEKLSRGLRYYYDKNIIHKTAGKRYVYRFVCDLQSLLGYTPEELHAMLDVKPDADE
Strand | E-score
CCTCATCC | 0.332
CCGGTGCG | 0.315
GCCAGGAA | 0.276
CGTACTTC | 0.292
ATACTTCC | 0.439
CTGCCGGA | 0.414
CCGGTAAG | 0.364
AGCCGGAA | 0.479
GGAACTTA | 0.31
ATCCGGCA | 0.465
GGTCTGCA | 0.286
GAAATATC | 0.289
CGTTATCC | 0.263

Study 3
Target: Interferon regulatory factor 5, full length, phosphomimetic (IRF5, Homo sapiens, UniProt Q13568-2, residues 1-514, S451D/S453D/S456D/S462D)
Method: protein-binding microarray
Molecule type: double-stranded DNA, one strand shown
Sample: in vitro
Concentration: 940 nM top
Setting: 60-bp whole probe
Together with: salmon DNA 0.4 mg/ml
Relative to: random background probes
Reading: higher = stronger binding
Shared flanks, not repeated: GCCTAGCAC … GTCTTGATTCGCTTGACGCTGCTG
Strand | fitted relative affinity
TTAGGTATCGGGTAACGGTTAGTGCTA | 6.18 z-score
TACGGTATCCTTCTCCTGACGTGCTAG | 0.718 z-score
GACGGTATCCTTTTCCTGATGTGCTAG | 0.345 z-score
GACGATTTCAGGTTCGAGACGTGCTAG | 0.224 z-score
TTAGATTTCTGTATCGATTAGTGCTAG | 2.71 z-score
GACGATCTCAGTTTCGAGTCGTGCTAG | 6.7 z-score
TTAGGTATCGGCCTCGGTTAGTGCTAG | 5.52 z-score
TCAGGTATCGGTTTCGGTTAGTGCTAG | 12 z-score
GACGATTTCCGTTTCGAGACGTGCTAG | 2.37 z-score
TTCTGTATGGGCATTTTTCTAGTGCTA | 0.273 z-score
TTAGATTTCAGTTCCGGTTAGTGCTAG | 2.71 z-score
GACGAGCTGAGTCTCGAGACGTGCTAG | 0.639 z-score
AGTGGTATAGCACTAAGGGAGTGCTAG | -0.0792 z-score
TTAGAACTGGGGTTTCGATTTGTGCTA | 4.89 z-score
TGTCCTTTTCTTTACTGATGGTGCTAG | 1.61 z-score
TTAGATTTTTTTTCCTAATTGTGCTAG | 0.702 z-score
AACGGTTTCGACTATCGGGACGTGCTA | 8.65 z-score

Study 4
Target: Sal-like protein 4, full length isoform A (SALL4, Homo sapiens, UniProt Q9UJQ4, residues 1-1053)
UniProt Q9UJQ4, sequence (whole entry, looked up): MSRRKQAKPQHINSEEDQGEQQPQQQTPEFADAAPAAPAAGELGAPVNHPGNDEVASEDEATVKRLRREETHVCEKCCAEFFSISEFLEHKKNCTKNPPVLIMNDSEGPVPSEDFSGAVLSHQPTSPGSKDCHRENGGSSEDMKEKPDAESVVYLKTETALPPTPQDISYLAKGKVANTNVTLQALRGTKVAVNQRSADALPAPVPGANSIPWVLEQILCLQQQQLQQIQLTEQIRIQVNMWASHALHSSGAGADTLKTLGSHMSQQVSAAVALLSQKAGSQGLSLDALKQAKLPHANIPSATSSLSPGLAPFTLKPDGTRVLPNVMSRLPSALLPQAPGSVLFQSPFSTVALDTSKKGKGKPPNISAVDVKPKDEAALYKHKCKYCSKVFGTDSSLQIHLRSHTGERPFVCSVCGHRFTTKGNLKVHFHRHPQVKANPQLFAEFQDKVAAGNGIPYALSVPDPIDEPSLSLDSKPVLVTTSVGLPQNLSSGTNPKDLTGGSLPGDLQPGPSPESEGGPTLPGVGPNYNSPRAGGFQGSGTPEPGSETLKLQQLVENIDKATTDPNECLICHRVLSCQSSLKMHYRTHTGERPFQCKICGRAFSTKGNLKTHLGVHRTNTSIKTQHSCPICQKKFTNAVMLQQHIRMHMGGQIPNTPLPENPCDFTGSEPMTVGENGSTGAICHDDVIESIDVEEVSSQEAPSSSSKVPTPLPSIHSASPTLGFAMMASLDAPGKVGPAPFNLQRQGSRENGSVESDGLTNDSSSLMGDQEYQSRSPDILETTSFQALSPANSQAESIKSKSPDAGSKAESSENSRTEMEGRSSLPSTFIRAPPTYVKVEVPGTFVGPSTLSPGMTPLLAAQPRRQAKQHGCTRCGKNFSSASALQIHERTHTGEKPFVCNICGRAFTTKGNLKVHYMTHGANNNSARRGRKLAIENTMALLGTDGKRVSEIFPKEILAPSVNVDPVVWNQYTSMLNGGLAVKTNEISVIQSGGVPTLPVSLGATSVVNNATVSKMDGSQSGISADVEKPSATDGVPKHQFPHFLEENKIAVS
Method: universal PBM
Molecule type: double-stranded DNA, one strand shown
Sample: in vitro
Concentration: 600 nM
Setting: 8-mer, flanks averaged, mean of replicates
Reading: higher = stronger binding
Strand | E-score
AGAAGTCT | 0.02
CTCACTTC | -0.225
CGGGGATC | -0.352
AACTTAGG | 0.0238
GGCGTCCC | -0.353
TAACGGTA | 0.112
ATCTACCA | 0.151
CCTCCCTA | -0.133
ATGGCACC | -0.17
CTAAGCTA | 0.0657
CCGCTAAA | -0.0521
AAGAAGCT | 0.125
GACCTGCC | -0.327
AGAGCAGA | 0.115
CTGCGAGC | -0.113
AGAGTATC | 0.148
CTCCATTC | -0.0981
CCCCAAAA | 0.0893
ATGATGAG | 0.148
CCCTCTAG | -0.0703
AAGCGTTA | 0.0343
ACCATACG | 0.0448

Study 5
Target: CCND1, cyclin fold, Cln2 fusion (human)
Method: yeast growth competition, sequencing
Sample: yeast
Setting: weak parent motif
Relative to: not given
Reading: higher = stronger binding
Parent: CDC25A docking peptide (human); PPHRRRLLFACSP
Change | normalised enrichment score
R6F | -0.16
L7G | -0.144
C11V | 0.149
H3Y | 0.279
S12N | 0.628
F9H | -0.165
S12T | 0.253
R4M | -0.0195
P13C | 0.539
R5H | 0.287
C11D | -0.385
P2F | 0.306
H3C | 0.318

Study 6
Target: Ras GTPase-activating protein-binding protein 1, full length (G3BP1, Homo sapiens, UniProt Q13283)
UniProt Q13283, sequence (whole entry, looked up): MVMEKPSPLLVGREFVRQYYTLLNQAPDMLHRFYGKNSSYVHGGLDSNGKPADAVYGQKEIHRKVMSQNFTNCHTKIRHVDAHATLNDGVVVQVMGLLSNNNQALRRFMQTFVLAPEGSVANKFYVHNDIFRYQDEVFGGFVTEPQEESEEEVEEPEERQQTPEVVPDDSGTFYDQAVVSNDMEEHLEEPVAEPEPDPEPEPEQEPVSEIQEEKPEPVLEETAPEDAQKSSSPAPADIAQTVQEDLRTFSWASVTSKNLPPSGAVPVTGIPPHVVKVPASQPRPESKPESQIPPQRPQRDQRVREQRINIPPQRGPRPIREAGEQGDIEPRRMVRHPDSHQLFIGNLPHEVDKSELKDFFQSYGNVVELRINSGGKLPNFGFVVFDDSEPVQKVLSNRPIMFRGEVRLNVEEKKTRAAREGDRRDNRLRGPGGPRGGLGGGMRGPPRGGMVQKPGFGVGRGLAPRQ
Method: RNA Bind-n-Seq
Molecule type: RNA
Sample: in vitro
Concentration: 200 nM
Setting: whole 134-nt RNA, ends assumed
Together with: 150 mM LiCl
Relative to: input library
Reading: higher = stronger binding
Each molecule: 7-deaza-guanosine replaces G
Shared flanks, not repeated: GGGAGUUCUACAGUCCGACGAUC … UGGAAUUCUCGGGUGUCAAGG
Strand | log2 enrichment
CCUGUGCUACACAUCGUAUGUACCGAAUCGGGGAAAAAAAGGGGAAAAAAAGGGGAGGGGAAAGUAUUAUGUUACGCCGUUCGGAUCUGC | 0.924
CUGUGCUACACAUCGUAUGUACCGAAUCGGGGUUUUUGGGGUUUUUUUGGGGUUUUUGGGGAAAGUAUUAUGUUACGCCGUUCGGAUCUG | 1.54
ACCAUGCAGGUGGGCAUCUUUGGGAAGUGGGGCAAGGGGGGGAUAGAGAGGGGGGUAACACUUUGGGAACAGGUGGUCCCAGGUCGUUUC | 0.151
UGCCUGGCCCAGUGCUGGGUUUGCCUUGUUGACGAUGCGCUUGGAUUGUUAAGGACACCGAUGUUCAGAACCCGGGAAGAGUCAUCUUAA | -2.45
UGGCCUUAUCACUCCUGGAGGCUUUUCAUCAGUGCCUGCUGGAAUGGAGACCCCUGAACUCAUUGAGCUGAGGAAGAAGAAGAUUGAGGA | -0.659
UGGCCCUGGUGGCAUGCGGGGAGGAAGAGGUGGCCUCAUGGAUCGUGGUGGUCCCGGUGGAAUGUUAAGAGGUGGCCGUGGUGGAGACAG | 0.0784
CUCAAGUCCUGUGCUACACAUCGUAUGUACCGAAUCGGAGGAAAAAGGUUUGGAAAGUAUUAUGUUACGCCGUUCGGAUCUGCACUUCCA | -0.452
AGUCCUGUGCUACACAUCGUAUGUACCGAAUCAAAUUUUUAAAUUUAAAUUUUUAAAAAAGUAUUAUGUUACGCCGUUCGGAUCUGCACU | -2.73
UGGGAGGUGGAUUUUGUUUAUUUUUUUAGCUCAUUUCCAGGGGUGGGAAAUUUUUUUUAAUAUGUGUCAUGAAUAAAGUUGUUUUUGAAA | -0.121
UCAAGUCCUGUGCUACACAUCGUAUGUACCGAAUCGGGUUGGGUUGGGGUUGGGGAAAGUAUUAUGUUACGCCGUUCGGAUCUGCACUUC | -0.0654
UGGAGCUGAAGAGCCAAGAGGCUCCGAGUCUGCAGCAGCAGCCAGACCAGUACCUGGAGCCCCAGUCCCACAAGGAGCUUGGAUGUGCGG | -0.966

Other studies, line by line
Substance | target | assay | test system | conditions | scale | endpoint | result
PhoQ, residues 284 288 289 292 302 303 SNSSNI | PhoP, residues 12 14 15 18 19 IQFRS (Escherichia coli, UniProt P23836) | Sort-seq, refers to: YFP reporter | E. coli | PhoQ-PhoP variant library, together with: 10 µM Mg2+ | relative to: high Mg2+ state, higher = stronger signaling | fold induction | 1.55

A few entries again (study 6):
Strand | log2 enrichment
ACCAUGCAGGUGGGCAUCUUUGGGAAGUGGGGCAAGGGGGGGAUAGAGAGGGGGGUAACACUUUGGGAACAGGUGGUCCCAGGUCGUUUC | 0.151
CCUGUGCUACACAUCGUAUGUACCGAAUCGGGGAAAAAAAGGGGAAAAAAAGGGGAGGGGAAAGUAUUAUGUUACGCCGUUCGGAUCUGC | 0.924
UGGCCCUGGUGGCAUGCGGGGAGGAAGAGGUGGCCUCAUGGAUCGUGGUGGUCCCGGUGGAAUGUUAAGAGGUGGCCGUGGUGGAGACAG | 0.0784
UGCCUGGCCCAGUGCUGGGUUUGCCUUGUUGACGAUGCGCUUGGAUUGUUAAGGACACCGAUGUUCAGAACCCGGGAAGAGUCAUCUUAA | -2.45
UGGCCUUAUCACUCCUGGAGGCUUUUCAUCAGUGCCUGCUGGAAUGGAGACCCCUGAACUCAUUGAGCUGAGGAAGAAGAAGAUUGAGGA | -0.659
AGUCCUGUGCUACACAUCGUAUGUACCGAAUCAAAUUUUUAAAUUUAAAUUUUUAAAAAAGUAUUAUGUUACGCCGUUCGGAUCUGCACU | -2.73
CUGUGCUACACAUCGUAUGUACCGAAUCGGGGUUUUUGGGGUUUUUUUGGGGUUUUUGGGGAAAGUAUUAUGUUACGCCGUUCGGAUCUG | 1.54
CUCAAGUCCUGUGCUACACAUCGUAUGUACCGAAUCGGAGGAAAAAGGUUUGGAAAGUAUUAUGUUACGCCGUUCGGAUCUGCACUUCCA | -0.452
UGGGAGGUGGAUUUUGUUUAUUUUUUUAGCUCAUUUCCAGGGGUGGGAAAUUUUUUUUAAUAUGUGUCAUGAAUAAAGUUGUUUUUGAAA | -0.121
UGGAGCUGAAGAGCCAAGAGGCUCCGAGUCUGCAGCAGCAGCCAGACCAGUACCUGGAGCCCCAGUCCCACAAGGAGCUUGGAUGUGCGG | -0.966
UCAAGUCCUGUGCUACACAUCGUAUGUACCGAAUCGGGUUGGGUUGGGGUUGGGGAAAGUAUUAUGUUACGCCGUUCGGAUCUGCACUUC | -0.0654
